Assay results of several laboratories.
A part holds a random share of what one study measured. Substitutions count along the parent as printed.

Block 1 — target: CCNE2, cyclin fold, Cln2 fusion (human); method: yeast growth competition, sequencing; matrix: yeast; setting: weak parent motif; baseline: not given; reading: higher = stronger binding
Parent: RB1 docking peptide (human); PKPLKKLRFDIEG; partner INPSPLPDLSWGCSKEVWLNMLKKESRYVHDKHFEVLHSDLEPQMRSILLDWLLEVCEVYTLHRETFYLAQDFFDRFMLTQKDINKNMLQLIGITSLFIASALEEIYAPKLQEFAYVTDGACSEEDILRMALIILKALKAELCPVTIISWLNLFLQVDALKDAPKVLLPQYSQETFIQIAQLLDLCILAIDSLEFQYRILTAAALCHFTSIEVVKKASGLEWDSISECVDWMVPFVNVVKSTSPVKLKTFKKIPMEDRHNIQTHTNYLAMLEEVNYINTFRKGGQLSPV
Substitution | normalised enrichment score
PDPLKKLRFDIEG [K2D] | -0.518
PKPLKKLRFKIEG [D10K] | 1.08
PKPLNKLRFDIEG [K5N] | 0.314
PKPLKTLRFDIEG [K6T] | 0.457
PKPLKKLRFDIET [G13T] | 0.258
PKPLKKLRFNIEG [D10N] | 1.11
PKPLKKLRFDISG [E12S] | 0.583
PKPLKKLRADIEG [F9A] | 1.27
PKPLKKWRFDIEG [L7W] | 1.05
MKPLKKLRFDIEG [P1M] | 0.0947
PKPLKKLRFDWEG [I11W] | 0.324
PKPLKKLRFDITG [E12T] | 1.55
PKPLKKLRFPIEG [D10P] | 0.212
PKPKKKLRFDIEG [L4K] | -0.278

Block 2 — method: protein-binding microarray; molecule type: double-stranded DNA, one strand shown; matrix: in vitro; concentration: 2200 nM top; setting: 60-bp whole probe; with: salmon DNA 0.4 mg/ml; baseline: random background probes; reading: higher = stronger binding; shared flanks, not repeated: GCCTAGCAC … GTCTTGATTCGCTTGACGCTGCTG
Target: Interferon regulatory factor 7, full length, phosphomimetic (IRF7, Homo sapiens, UniProt Q92985, residues 1-503, S471D/S472D/S475D/S476D/S477D/S483D/S484D/S487D)
UniProt Q92985, sequence (whole entry, unmodified, looked up): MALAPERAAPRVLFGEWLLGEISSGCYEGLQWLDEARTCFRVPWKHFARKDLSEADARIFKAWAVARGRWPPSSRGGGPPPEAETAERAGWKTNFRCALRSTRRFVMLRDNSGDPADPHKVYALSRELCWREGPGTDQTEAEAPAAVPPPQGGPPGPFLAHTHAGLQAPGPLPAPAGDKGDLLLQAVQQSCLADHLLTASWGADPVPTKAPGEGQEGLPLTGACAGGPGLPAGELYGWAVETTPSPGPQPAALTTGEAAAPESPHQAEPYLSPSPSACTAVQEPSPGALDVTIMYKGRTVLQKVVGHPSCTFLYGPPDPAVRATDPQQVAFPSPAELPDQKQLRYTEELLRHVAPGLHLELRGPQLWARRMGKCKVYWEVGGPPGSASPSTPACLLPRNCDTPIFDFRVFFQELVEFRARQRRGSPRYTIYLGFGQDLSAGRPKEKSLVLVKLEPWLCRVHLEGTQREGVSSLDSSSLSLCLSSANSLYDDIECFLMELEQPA
Strand | fitted relative affinity [z-score]
ATCCCATTAAATTTTAATAAGTGCTAG | 0.237
TTAGTTATCGGGTTTCGGTTAGTGCTA | 4.9
TTAGGACTGGGGACTGGGTTTGTGCTA | -0.716
TCATTTCTCAACCATTTTACTGTGCTA | 2.14
GACGATTCTAGTTTCGAGACGTGCTAG | 4.41
CAGGGGCTGCCTGGATGCCGGTGCTAG | -1.69
TCAAATATCTTTGTTGAACTGTGCTAG | -0.126
GGCGATATCGGGACTGGAGACGTGCTA | -0.838
TCACCTTTCACTTTAACACTGTGCTAG | 5.11
GACGGTTTCCTACTGCCGACGTGCTAG | 2.05

Single results of other studies
Substance | target or system | test | test system | conditions | scale | endpoint | result
HNRNPA1L2 (Homo sapiens, UniProt Q32P51) | HNRNPAB (Homo sapiens, UniProt Q99729) | cross-linking MS | – | hits only | – | interaction screen | cross-linked
PhoQ, residues 284 288 289 292 302 303 TLMATV | PhoP, residues 12 14 15 18 19 HEGLL (Escherichia coli, UniProt P23836) | Sort-seq, measured: YFP reporter | E. coli | PhoQ-PhoP variant library, with: 10 µM Mg2+ | baseline: high Mg2+ state, higher = stronger signaling | fold induction | 5.02
AXIN1 (Homo sapiens, UniProt O15169) | CALD1 (Homo sapiens, UniProt Q05682) | cross-linking MS | cell fractions | with: DSSO | – | cross-linked residues | K719 to K601
PDCD11 (Homo sapiens, UniProt Q14690) | EBNA1BP2 (Homo sapiens, UniProt Q99848) | cross-linking MS | cell fractions | with: DMTMM | – | cross-linked residues | E715 to K45
PRDX3 (Homo sapiens, UniProt P30048) | MDH2 (Homo sapiens, UniProt P40926) | cross-linking MS | – | hits only | – | interaction screen | cross-linked

Some of these lines once more (block 1):
Substitution | normalised enrichment score
PKPLKKLRFDWEG [I11W] | 0.324
PDPLKKLRFDIEG [K2D] | -0.518
PKPLKKLRFDISG [E12S] | 0.583
PKPLKKLRFNIEG [D10N] | 1.11
PKPLKKWRFDIEG [L7W] | 1.05
